# Published values from different studies.
# Protocols differ between the studies behind these lines.
# rep main protease: Replicase polyprotein 1ab, main protease (rep, Severe acute respiratory syndrome coronavirus 2, UniProt P0DTD1)
# rep papain-like protease: Replicase polyprotein 1ab, papain-like protease (rep, Severe acute respiratory syndrome coronavirus 2, UniProt P0DTD1)
Substance,target,assay,test system,conditions,inhibition
COc1c2c(cc3oc(=O)c(-c4ccc(O)cc4O)cc13)OC(C)(C)CC2,rep main protease,"enzyme activity, inhibitor",,concentration not given,16.2%
daurisoline,rep main protease,"enzyme activity, mKate2 fluorescence reporter",SARS-CoV-2,20 µM,-0.577%
Cc1nn(C)c2ncc(C(=O)N3CC4(CCOCC4)C[C@H]3CNC(=O)c3cccnc3)cc12,rep main protease,"enzyme activity, inhibitor",,"5 µM, mean of runs",11.1%
O=c1cc(-c2ccc(O)cc2)oc2cc(O[C@@H]3O[C@H](CO)[C@@H](O)[C@H](O)[C@H]3O)ccc12,rep main protease,"enzyme activity, inhibitor",,concentration not given,12.5%
CC1=C2CC(C(=O)N[C@@H]3CN(C(=O)c4cc5ccccc5o4)Cc4nccn4C3)=CN=C2NN1,rep main protease,"Mpro enzyme activity, inhibitor",,"5 µM, high-throughput screen, mean of runs",11%
voxilaprevir,rep main protease,"enzyme activity, mKate2 fluorescence reporter",SARS-CoV-2,20 µM,0.269%
COc1cc(OC)c2c(=O)c(OC)c(-c3ccccc3)oc2c1,rep main protease,"enzyme activity, inhibitor",,100 µM,-13.7%
Cc1ccc(OCCn2c(C)c(C=C3C(=O)NC(=S)NC3=O)c3ccccc32)c(C)c1,rep main protease,"viral replication, mKate2 reporter",SARS-CoV-2,20 µM,-1.7%
O=C1NC(=O)C2(CC(C(=O)NC[C@@H]3CC4(CCC4)CN3C(=O)c3ccn4ccnc4c3)C2)N1 (some centres unmarked),rep main protease,"enzyme activity, inhibitor",,"5 µM, mean of runs",10%
COc1cc(O)c2c(=O)c(OC)c(-c3ccccc3)oc2c1,rep main protease,"enzyme activity, inhibitor",,100 µM,7.44%
O=C(NC[C@@H]1C[C@H]2CC[C@@H]1N(C(=O)c1ccc3n[nH]nc3n1)C2)[C@@H]1CCc2n[nH]c(=O)n2C1,rep main protease,"enzyme activity, inhibitor",,"5 µM, mean of runs",13.4%
Cc1nn(-c2ccc(Cl)cc2)c2c1C(c1ccc(Cl)cc1Cl)C(C#N)=C(N)O2 (centres unmarked),rep main protease,3CL protease activity,,"0.001 µg/mL, 90 min, enzyme 1 ng/mL",6.28%
CC(C)=CCc1cc(-c2oc3cc(O)cc(O)c3c(=O)c2O)cc(O)c1O,rep main protease,"enzyme activity, inhibitor",,concentration not given,21.2%
CC(=O)OCCN1C(=O)c2c(C)nc3ccc(S(=O)(=O)N4CCOCC4)cc3c2C1=O,rep main protease,"reporter gene (mKate2), inhibitor",,20 µM,-0.553%
C[C@@H]1O[C@@H](c2c(O)c([C@@H]3O[C@H](CO)[C@@H](O)[C@H](O)[C@H]3O)c3oc(-c4ccc(O)cc4)cc(=O)c3c2O)[C@H](O)[C@H](O)[C@H]1O,rep main protease,"enzyme activity, inhibitor",,concentration not given,37.8%
Nc1nc2nc[nH]c2c(=S)[nH]1,rep papain-like protease,BRET in cells,,up to 100 µM,inactive
COc1ccc(-c2cc(=O)c3c(OC)cc(OC)cc3o2)cc1,rep main protease,"enzyme activity, inhibitor",,10 µM,-46.4%
Cc1ccccc1C1(C(=O)NC[C@H](NC(=O)Cn2cncn2)c2ccc3ccccc3c2)CC1,rep main protease,"enzyme activity, inhibitor",,"5 µM, mean of runs",10.5%
COc1cc(O)c2c(c1)O[C@H](c1ccccc1)CC2=O,rep main protease,"enzyme activity, inhibitor",,10 µM,1.28%
O=c1cc(-c2ccc(O)cc2)oc2c([C@@H]3O[C@H](CO)[C@@H](O)[C@H](O)[C@H]3O)c(O)c([C@@H]3OC[C@H](O)[C@H](O)[C@H]3O)c(O)c12,rep main protease,"enzyme activity, inhibitor",,concentration not given,63%
CC(C)C[C@H](NC(=O)[C@H](Cc1ccccc1)NC(=O)c1cnccn1)B1O[C@@H]2C[C@@H]3C[C@@H](C3(C)C)[C@]2(C)O1,rep main protease,"viral replication, mKate2 reporter",SARS-CoV-2,20 µM,-0.816%
COc1ccc(-c2oc3cc(OC)cc(OC)c3c(=O)c2OC)cc1,rep main protease,"enzyme activity, inhibitor",,10 µM,0.4%
CC(=O)OC[C@H]1O[C@@H]([S-])[C@H](OC(C)=O)[C@@H](OC(C)=O)[C@@H]1OC(C)=O.CCP(CC)CC.[Au+],rep main protease,"protease activity, inhibitor",,"50 µM, 10 min, pH 7.2, 37 °C, 4% DMSO, with: Boc-Abu-Tle-Leu-Gln-AMC substrate",52%
Nc1cccc(C(=O)NC[C@H](NC(=O)c2cnc3n[nH]nc3c2)c2ccc3ccccc3c2)c1,rep main protease,"enzyme activity, inhibitor",,"5 µM, run 1",9.2%
COc1ccc(-c2oc3cc(OC)cc(O)c3c(=O)c2OC)cc1,rep main protease,"enzyme activity, inhibitor",,10 µM,0.9%
COc1cc2c(cc1OC)-c1c(C)c3ccc(OC)c(OC)c3c[n+]1CC2,rep main protease,"reporter gene (Gaussia luciferase), inhibitor",,20 µM,0.158%
O=C(N1CCC2(CC1)C[C@H](CN1CCCCS1(=O)=O)CCO2)C1(c2ccccc2)CCCC1,"Replicase polyprotein 1ab, nsp13 helicase (rep, Severe acute respiratory syndrome coronavirus 2, UniProt P0DTD1)","ATPase activity, inhibitor",,100 µM,20%
O=C1CC(C(=O)N2CC3(CCC3)C[C@H]2CNC(=O)c2cncc3[nH]cnc23)CC(=O)N1,rep main protease,"enzyme activity, inhibitor",,"5 µM, mean of runs",11.4%
O=c1oc(-c2ccccc2Br)nc2cccc(Cl)c12,rep main protease,"viral replication, mKate2 reporter",SARS-CoV-2,20 µM,-0.78%
CC(C)=CCc1c(O)ccc(-c2coc3cc(O)cc(O)c3c2=O)c1O,rep papain-like protease,"enzyme activity, inhibitor",,concentration not given,45.5%
CN1CCc2nc(C(=O)N[C@@H]3C[C@@H](C(=O)N(C)C)CC[C@@H]3NC(=O)C(=O)Nc3ccc(Cl)cn3)sc2C1,rep main protease,"reporter gene (Gaussia luciferase), inhibitor",,20 µM,-0.425%
O=C(N[C@@H](CNC(=O)[C@H]1CC12CC2)c1ccc2ccccc2c1)c1cncc2ccccc12,rep main protease,"enzyme activity, inhibitor",,"5 µM, run 1",8.6%
